Measurements gathered from unrelated publications.
Parts stem from different laboratories: compare values within a part only.

Series 1
Target: Prothrombin, mature alpha-thrombin (F2, Homo sapiens, UniProt P00734)
Method: aptamer microarray, sandwich
Form: DNA with 2'F-ANA
Sample: in vitro
Tested at: 200 nM
Setting: whole 15-mer aptamer, many near background
Added: Cy3 exosite-II aptamer, 400 nM
Direction: higher = stronger binding
Endpoint: mean fluorescence intensity
Sequence: GGTTGGTGTGGTTGG
2'F-ANA at 3 4 6 8 9 12: 874 a.u.
2'F-ANA at 3 5 7 9 11 13 14: 107 a.u.
2'F-ANA at 1 2 3 4 6 10 14 15: 49.6 a.u.
2'F-ANA at 2 4 7 8 9 12 14 15: 154 a.u.
2'F-ANA at 1 2 6 10 12: 66.4 a.u.
2'F-ANA at 1 2 4 5 7 8 10 12 14: 49.2 a.u.
2'F-ANA at 2 3 5 7 8 9 10 11 14 15: 102 a.u.
2'F-ANA at 1 2 4 6 8 13 14 15: 50.6 a.u.
2'F-ANA at 2 4 9 13: 216 a.u.
2'F-ANA at 2 3 4 5 8 9 11 12 13 14: 82.6 a.u.
2'F-ANA at 2 4 7 8 9 10 14 15: 67.4 a.u.
2'F-ANA at 1 2 3 5 6 10 11 12 14 15: 73.2 a.u.

Series 2
Target: Ras GTPase-activating protein-binding protein 1, full length (G3BP1, Homo sapiens, UniProt Q13283)
Chain of UniProt Q13283 (whole entry, looked up): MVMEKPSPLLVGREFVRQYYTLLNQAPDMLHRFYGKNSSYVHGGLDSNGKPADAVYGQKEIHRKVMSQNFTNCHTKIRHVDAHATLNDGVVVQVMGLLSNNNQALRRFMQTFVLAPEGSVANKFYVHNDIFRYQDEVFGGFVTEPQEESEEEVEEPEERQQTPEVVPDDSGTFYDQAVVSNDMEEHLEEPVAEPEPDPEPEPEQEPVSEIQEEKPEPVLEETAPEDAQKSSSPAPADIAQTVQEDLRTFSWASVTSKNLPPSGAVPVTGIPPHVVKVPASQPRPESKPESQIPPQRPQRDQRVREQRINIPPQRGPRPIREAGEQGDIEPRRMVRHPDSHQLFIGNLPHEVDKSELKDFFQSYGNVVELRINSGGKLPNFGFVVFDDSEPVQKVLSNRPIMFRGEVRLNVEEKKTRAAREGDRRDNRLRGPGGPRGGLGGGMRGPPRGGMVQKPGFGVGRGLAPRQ
Method: RNA Bind-n-Seq
Form: RNA
Sample: in vitro
Tested at: 200 nM
Setting: whole 134-nt RNA, ends assumed
Added: 150 mM LiCl
Relative to: input library
Direction: higher = stronger binding
Endpoint: log2 enrichment
Each molecule: 7-deaza-guanosine replaces G
Shared flanks, not repeated: GGGAGUUCUACAGUCCGACGAUC … UGGAAUUCUCGGGUGUCAAGG
CAAGUCCUGUGCUACACAUCGUAUGUACCGAAUCGGUUUUUGGUUUUUGGAAAGGAAAGUAUUAUGUUACGCCGUUCGGAUCUGCACUUC: -0.437
UGGCCCUGGUGGCAUGCGGGGAGGAAGAGGUGGCGUCAUGGAUCGUGGUGGUCCCGGUGGAAUGUUCAGAGGUGGCCGUGGUGGAGACAG: 0.959
CCUCAAGUCCUGUGCUACACAUCGUAUGUACCGAAUCGGUGGGUGGGGUGGGGAAAGUAUUAUGUUACGCCGUUCGGAUCUGCACUUCCA: -0.0861
CUGUGCUACACAUCGUAUGUACCGAAUCGGUUUUUUUGGGGUUUUUUUGGGUUUUUUUGGGAAAGUAUUAUGUUACGCCGUUCGGAUCUG: 1.2
CACAGACAACACGCACCCACACAGACACAGAGGGAAGGGGUUGGGAUGGGGACAGGGUGCACAGCAGGGAAAGGUAGGACCCCAGCCCCU: 0.32
CAAGUCCUGUGCUACACAUCGUAUGUACCGAAUCGGGUUUGGGGUUUGGGUUUGGAAAGUAUUAUGUUACGCCGUUCGGAUCUGCACUUC: -0.605
CAAGUCCUGUGCUACACAUCGUAUGUACCGAAUCGGUUUUUGGUUUUUUUGGAGGAAAGUAUUAUGUUACGCCGUUCGGAUCUGCACUUC: -0.149
CCUCAAGUCCUGUGCUACACAUCGUAUGUACCGAAUCGGGGUGGGGUGGUGGAAAGUAUUAUGUUACGCCGUUCGGAUCUGCACUUCCAG: -0.391
GCAGGAAGUAAAAACAAAUGGAAAUGCUUCGGAUAGUGGCAGGGGUGGGGGUUGCUAAGGAAAGGGUGGGAUGGGAGUGGGUAAAAAGUU: -0.279
UGGAUAUGGUUAUAGAAGAAGUGGCCGAGAUAAAUAUGGCCCUCCUACUCGCACAGAGUACAGACUUAUUGUGGAGAAUUUGUCAAGUCG: -1.59
CACAGACAACACGAACCCACACAGACACAGAGGGAAGGGGUUGGGAUGGGGACAGGGUGCACAGCAGGGCGGGGUAGGACCCCAGCCCCU: 0.391

Series 3
Target: Centromere-binding protein 1, full length, N-terminal tag (CBF1, Saccharomyces cerevisiae, UniProt P17106, residues 1-351)
Chain of UniProt P17106 (whole entry, looked up): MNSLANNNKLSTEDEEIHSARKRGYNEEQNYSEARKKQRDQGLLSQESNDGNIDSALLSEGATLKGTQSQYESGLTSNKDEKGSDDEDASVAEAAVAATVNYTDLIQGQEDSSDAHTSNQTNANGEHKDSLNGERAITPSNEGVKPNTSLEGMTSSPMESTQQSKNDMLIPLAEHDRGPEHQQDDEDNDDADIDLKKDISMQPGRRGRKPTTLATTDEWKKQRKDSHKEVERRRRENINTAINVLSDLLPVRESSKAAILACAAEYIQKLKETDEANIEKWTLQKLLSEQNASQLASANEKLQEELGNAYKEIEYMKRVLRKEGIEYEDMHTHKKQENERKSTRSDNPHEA
Method: protein-binding microarray
Form: double-stranded DNA, one strand shown
Sample: in vitro
Tested at: 0.8 µM
Setting: whole 60-bp probe, no competitor
Direction: higher = stronger binding
Endpoint: fluorescence intensity
Shared flanks, not repeated: … GTCTTGATTCGCTTGACGCTGCTG
TGTACGAAGCTATTTCTCACCACTATAGTAGTTAGG: 494 a.u.
GAATATTTTCTCCCACACGAGGATTCTGTGGTTTAG: 545 a.u.
CTAATTGTTTTACGCCACGTTAATAGGAACCAATTC: 554 a.u.
GAAGTTACCTCATCTCACCTGTTTTGGAAATTATAG: 550 a.u.
CTATTGTATTTCAACCACGTTCCATATATGTGGTTC: 782 a.u.
CTAGAAAGTGAAGAGCACGTCCGGAAACACAGCTTC: 511 a.u.
CTAATATATGGCTATCACATGGCACAGGTATTATTC: 2010 a.u.
GAACGCTAAGATTTTCACGTGCTCATCAATGTGTAG: 7900 a.u.
CTAAATCCAATATATACTCACATGTAACAACTTTTC: 805 a.u.
GAACACCAGCGTGGTTACGTGCTATCGCCCAGCTAG: 552 a.u.
GAACAAGAACTCGTTTACGTGCCGCGAAAAGTCTAG: 532 a.u.

Mixed results
PhoQ, residues 284 288 289 292 302 303 QWQEDG — fold induction (PhoP, residues 12 14 15 18 19 IQFRS (Escherichia coli, UniProt P23836); Sort-seq, refers to: YFP reporter; E. coli; PhoQ-PhoP variant library, added: 10 µM Mg2+; relative to: high Mg2+ state, higher = stronger signaling): 13.8

Excerpt of the above (series 2):
GCAGGAAGUAAAAACAAAUGGAAAUGCUUCGGAUAGUGGCAGGGGUGGGGGUUGCUAAGGAAAGGGUGGGAUGGGAGUGGGUAAAAAGUU: -0.279
CUGUGCUACACAUCGUAUGUACCGAAUCGGUUUUUUUGGGGUUUUUUUGGGUUUUUUUGGGAAAGUAUUAUGUUACGCCGUUCGGAUCUG: 1.2
CAAGUCCUGUGCUACACAUCGUAUGUACCGAAUCGGGUUUGGGGUUUGGGUUUGGAAAGUAUUAUGUUACGCCGUUCGGAUCUGCACUUC: -0.605
CCUCAAGUCCUGUGCUACACAUCGUAUGUACCGAAUCGGUGGGUGGGGUGGGGAAAGUAUUAUGUUACGCCGUUCGGAUCUGCACUUCCA: -0.0861
UGGAUAUGGUUAUAGAAGAAGUGGCCGAGAUAAAUAUGGCCCUCCUACUCGCACAGAGUACAGACUUAUUGUGGAGAAUUUGUCAAGUCG: -1.59
